Experimental data of several laboratories.
Each line is one published result; not all experiments were run side by side. “And” joins repeats or separate records; there may be more than shown.
Rab GDP dissociation inhibitor beta with Rab1A: Rab GDP dissociation inhibitor beta, with Rab1A (Homo sapiens, UniProt P50395)
Voltage-dependent P/Q-type calcium channel subunit alpha-1A: Voltage-dependent P/Q-type calcium channel subunit alpha-1A (Homo sapiens, UniProt O00555)
UCHL1: Ubiquitin carboxyl-terminal hydrolase isozyme L1 (UCHL1, Homo sapiens, UniProt P09936)

O=C(NO)c1ccc(CN2CCCCc3ccccc32)c(F)c1  inhibition (Alpha-2C adrenergic receptor (ADRA2C, Homo sapiens, UniProt P18825); radioligand binding, radioligand displacement; 10 µM, mean of replicates): 6.66%
Cc1nn(-c2nc3c(F)cc(F)cc3s2)c(O)c1C(c1ccccc1C(=O)O)c1c(C)nn(-c2nc3c(F)cc(F)cc3s2)c1O  inhibition (Cyclic GMP-AMP synthase (CGAS, Homo sapiens, UniProt Q8N884); enzyme activity, inhibitor, pyrophosphatase-coupled; 50 µM, 1.5 h, with: HT-DNA): 82.9%
CCN1/C(=C/C(C)=O)Sc2ccc(F)cc21  inhibition (Muscarinic acetylcholine receptor M5 (CHRM5, Homo sapiens, UniProt P08912); 10 µM): 0.96%
CC1(C)C=Cc2c(ccc3c2OC[C@@H](c2ccc(O)cc2O)C3)O1  inhibition (Glutamate NMDA receptor; GRIN1/GRIN2A (Homo sapiens, UniProt Q05586+Q12879); ion current, inhibitor, two-electrode voltage clamp; Xenopus oocytes; 13 µM, with: NMDA and glycine): > 50%
C=CC(=O)Nc1ccc(Cn2cc(C[C@@]3(O)C[C@@H]4c5cc(OCc6cc(C)cc(C)c6)c(OCc6cc(C)cc(C)c6)cc5CCN4[C@@H](C)C3)nn2)cc1  inhibition (Rab GDP dissociation inhibitor beta with Rab1A; GDI2-Rab1A interaction, NanoLuc complementation; 6.25 µM): 92.7%
CCCN(CCC)CCc1cccc2c1CC(=O)N2  inhibition (Voltage-dependent P/Q-type calcium channel subunit alpha-1A; ion current, antagonist; HEK293; 3 µM): 4%
N#CC(=Cc1cc2c(cc1[N+](=O)[O-])OCO2)C(=O)NC1CCCCC1  labelling (UCHL1; covalent, intact protein LC-MS; 12.5 µM): 10.8%
Cc1cc(-c2ccnc3[nH]cc(F)c23)cc(F)c1[C@@]1(O)[C@H](C)CN(C2CCS(=O)(=O)CC2)C[C@@H]1C  inhibition (Phosphatidylinositol 3-kinase catalytic subunit type 3 (PIK3C3, Homo sapiens, UniProt Q8NEB9); ATP probe binding, KiNativ, measured: ATP site; HEK293T cell lysate; 1 µM): 48.2%
CCCN1CCCC[C@H]1C(=O)Nc1c(C)cccc1C  inhibition (Voltage-dependent P/Q-type calcium channel subunit alpha-1A; ion current, antagonist; HEK293; 30 µM): 16%
C#CCN1C(=O)C2(C(C#N)=C(N)OC3=C2C(=O)CC(C)(C)C3)c2ccccc21 (centres unmarked)  labelling (UCHL1; covalent, intact protein LC-MS; 12.5 µM): 16.1%
Cc1cc(C)cc(COc2cc3c(cc2OCc2cc(C)cc(C)c2)[C@@H]2C[C@@](O)(Cc4cn(Cc5ccc(S(C)(=O)=O)cc5)nn4)C[C@@H](C)N2CC3)c1  inhibition (Rab GDP dissociation inhibitor beta with Rab1A; GDI2-Rab1A interaction, NanoLuc complementation; 6.25 µM): 91.1%
C1CCC(OCCN2CCN(CCOC3CCCCC3)CC2)CC1  inhibition (Trypanosoma cruzi; reporter translation, Renilla luciferase mRNA translation; cell-free extract; 40 µM; baseline: DMSO): -6.3%
COc1cc(C(=O)NS(=O)(=O)c2ccccc2C)ccc1Cc1cn(C)c2ccc(NC(=O)OC3CCCC3)cc12  inhibition (Volume-regulated anion channel subunit LRRC8C, part LRRC8A IL1 chimera (LRRC8C, Homo sapiens, UniProt Q8TDW0, L136K); ion current, inhibitor, whole-cell patch clamp; HCT LRRC8-/- cells; 0.1 µM, +100 mV): 64% and 66.2% and 48.3% and 49.8% and 47.4% and 55.9% and 44.5%
O=C(CSc1nc2nccnc2c(=O)n1CCc1ccccc1)Nc1nccs1  inhibition (Phosphatidylinositol 4,5-bisphosphate 3-kinase catalytic subunit alpha isoform, with p85 alpha (PIK3CA, Homo sapiens, UniProt P42336, E545K); 10 µM, E545K with PIK3R1): 28%
CN(C)CCCN1c2ccccc2Sc2ccc(Cl)cc21  inhibition (Voltage-dependent P/Q-type calcium channel subunit alpha-1A; ion current, antagonist; HEK293; 10 µM): 97%
Cc1cc(C(=O)N(C)CC2CCCN(CCc3ccc(F)cc3)C2)c(C)o1 (centres unmarked)  inhibition (Trypanosoma cruzi; reporter translation, Renilla luciferase mRNA translation; cell-free extract; 40 µM; baseline: DMSO): -3.4%
Cn1c(=O)c2[nH]cnc2n(C)c1=O  inhibition (Voltage-dependent P/Q-type calcium channel subunit alpha-1A; ion current, antagonist; HEK293; 30 µM): 1%
[2H]c1cc(C)c(NC(=O)c2cnc(Nc3cc(N4CCC(O)CC4)nc(C)n3)s2)c(Cl)c1  inhibition (Platelet-derived growth factor receptor beta (PDGFRB, Homo sapiens, UniProt P09619); 0.001 µM): < 50%
CNCCCC12CCC(c3ccccc31)c1ccccc12  inhibition (Voltage-dependent P/Q-type calcium channel subunit alpha-1A; ion current, antagonist; HEK293; 10 µM): 51%
CC[C@@H]1[C@H](F)C(=O)N[C@@H]1COc1nccc2cc(C(N)=O)c(OC)cc12  inhibition (Serine/threonine-protein kinase LATS2 (LATS2, Homo sapiens, UniProt Q9NRM7); ATP-site probe binding, ActivX profiling; THP-1 cell lysate; 0.01 mM, Lys2 site): -10.4%

Repeated from above:
[2H]c1cc(C)c(NC(=O)c2cnc(Nc3cc(N4CCC(O)CC4)nc(C)n3)s2)c(Cl)c1  inhibition (Platelet-derived growth factor receptor beta (PDGFRB, Homo sapiens, UniProt P09619); 0.001 µM): < 50%
